Earlier results that unrelated publications cite.
Compare with care: the assays were run in different laboratories.
Sequence of UniProt Q8IYT8 (whole entry, looked up): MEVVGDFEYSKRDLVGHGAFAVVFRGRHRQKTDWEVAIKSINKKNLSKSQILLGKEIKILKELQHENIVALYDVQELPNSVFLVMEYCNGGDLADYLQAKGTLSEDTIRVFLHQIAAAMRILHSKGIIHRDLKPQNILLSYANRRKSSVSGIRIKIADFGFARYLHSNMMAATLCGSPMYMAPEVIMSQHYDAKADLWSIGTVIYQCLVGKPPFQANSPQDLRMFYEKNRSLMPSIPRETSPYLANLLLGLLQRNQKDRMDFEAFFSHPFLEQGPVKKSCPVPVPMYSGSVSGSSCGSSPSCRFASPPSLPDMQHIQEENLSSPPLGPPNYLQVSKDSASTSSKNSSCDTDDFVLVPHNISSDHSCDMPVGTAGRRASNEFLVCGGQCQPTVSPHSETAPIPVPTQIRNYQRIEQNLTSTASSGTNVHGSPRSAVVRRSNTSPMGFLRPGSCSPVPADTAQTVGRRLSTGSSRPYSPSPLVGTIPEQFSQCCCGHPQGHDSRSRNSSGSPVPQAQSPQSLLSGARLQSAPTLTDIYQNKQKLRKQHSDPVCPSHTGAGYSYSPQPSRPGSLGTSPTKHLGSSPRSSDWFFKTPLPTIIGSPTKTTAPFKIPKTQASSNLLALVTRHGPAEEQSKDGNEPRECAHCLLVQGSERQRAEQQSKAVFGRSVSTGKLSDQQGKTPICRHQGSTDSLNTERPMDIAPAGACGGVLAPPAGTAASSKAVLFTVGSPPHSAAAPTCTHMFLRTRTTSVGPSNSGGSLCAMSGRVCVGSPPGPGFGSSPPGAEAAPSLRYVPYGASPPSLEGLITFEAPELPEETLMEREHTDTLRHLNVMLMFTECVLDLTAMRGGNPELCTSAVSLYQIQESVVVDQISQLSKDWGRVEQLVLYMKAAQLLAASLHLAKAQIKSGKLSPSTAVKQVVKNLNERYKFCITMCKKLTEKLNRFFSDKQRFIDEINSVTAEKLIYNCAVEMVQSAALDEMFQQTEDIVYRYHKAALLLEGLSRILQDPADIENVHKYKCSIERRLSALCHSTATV

CN1CCc2nc(C(=O)N[C@@H]3C[C@@H](C(=O)N(C)C)CC[C@@H]3NC(=O)C(=O)Nc3ccc(Cl)cn3)sc2C1
exposure increase (human, moderate renal impairment; concentration not given, eGFR 10-50 mL/min; baseline: normal renal function): 74%

Cn1c(Cn2ccc(C(F)(F)F)c(Oc3cc(Cl)cc(C#N)c3)c2=O)n[nH]c1=O
exposure reduction (human; dose not given, strong CYP3A4 induction, together with: rifampin): 88%

COc1cc2nccc(Oc3ccc(NC(=O)C4(C(=O)Nc5ccc(F)cc5)CC4)cc3)c2cc1OC
exposure decrease (healthy human volunteers; single dose, CYP3A4 inducer, together with: rifampin 600 mg daily 31 days): 77%

CNC(=O)c1c(C)oc2cc(Oc3ncnc4cc(OC)c(OC)cc34)ccc12
exposure change (healthy human subjects; dose not given, together with: rabeprazole): no effect

C#Cc1cccc(Nc2ncnc3cc(OCCOC)c(OCCOC)cc23)c1
exposure ratio (human, healthy volunteers; together with: rifampicin; baseline: with over without rifampicin): 0.3 fold

Nc1cc(C(F)(F)F)c(-c2nc(N3CCOCC3)nc(N3CCOCC3)n2)cn1
remaining activity (Serine/threonine-protein kinase ULK2 (ULK2, Homo sapiens, UniProt Q8IYT8); enzyme activity; 10 µM; baseline: untreated): 91%

CO[C@@H](C)Cn1c(=O)n(C)c2cnc3ccc(-c4cncc(C(C)(C)O)c4)cc3c21
exposure decrease (human; concentration not given, preliminary, together with: enzalutamide co-administration): ~30%

Cn1cncc1[C@@](N)(c1ccc(Cl)cc1)c1ccc2c(c1)c(-c1cccc(Cl)c1)cc(=O)n2C
exposure increase (human; concentration not given, together with: high-fat meal; baseline: fasted): ~30%

Cc1cc(Nc2ncc(Cl)c(Nc3ccccc3S(=O)(=O)C(C)C)n2)c(OC(C)C)cc1C1CCNCC1
exposure increase (healthy humans; concentration not given, low-fat snack; baseline: fasting): 58%

For quick reference, copied from above:
CN1CCc2nc(C(=O)N[C@@H]3C[C@@H](C(=O)N(C)C)CC[C@@H]3NC(=O)C(=O)Nc3ccc(Cl)cn3)sc2C1
exposure increase (human, moderate renal impairment; concentration not given, eGFR 10-50 mL/min; baseline: normal renal function): 74%
